Assay results of several laboratories.
A part holds a random share of what one study measured. Values joined by “and” are separate records of one study, mostly repeats; a detail may differ.
Chain of UniProt Q12851 (whole entry, looked up): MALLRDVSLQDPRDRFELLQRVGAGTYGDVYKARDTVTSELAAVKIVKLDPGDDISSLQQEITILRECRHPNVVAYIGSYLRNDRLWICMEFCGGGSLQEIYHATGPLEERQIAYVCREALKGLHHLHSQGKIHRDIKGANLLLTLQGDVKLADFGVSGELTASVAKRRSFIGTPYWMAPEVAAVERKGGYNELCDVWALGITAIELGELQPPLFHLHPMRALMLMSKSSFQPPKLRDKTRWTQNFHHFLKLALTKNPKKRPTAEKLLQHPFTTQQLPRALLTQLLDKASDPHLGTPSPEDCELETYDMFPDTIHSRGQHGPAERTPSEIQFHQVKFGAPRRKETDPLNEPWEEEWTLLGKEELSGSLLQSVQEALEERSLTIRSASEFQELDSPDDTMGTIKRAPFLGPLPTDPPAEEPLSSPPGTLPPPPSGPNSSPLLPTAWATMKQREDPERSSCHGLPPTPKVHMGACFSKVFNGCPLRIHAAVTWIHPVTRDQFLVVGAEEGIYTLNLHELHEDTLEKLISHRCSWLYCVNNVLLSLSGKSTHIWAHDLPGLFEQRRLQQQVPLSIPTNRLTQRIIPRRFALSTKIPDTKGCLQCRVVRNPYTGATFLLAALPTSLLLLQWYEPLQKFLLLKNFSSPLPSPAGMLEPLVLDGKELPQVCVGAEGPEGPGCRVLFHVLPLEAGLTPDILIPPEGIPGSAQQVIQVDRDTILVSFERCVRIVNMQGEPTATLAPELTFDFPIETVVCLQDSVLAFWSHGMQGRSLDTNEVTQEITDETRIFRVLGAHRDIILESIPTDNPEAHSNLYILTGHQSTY
Chain of UniProt Q9HBH9 (whole entry, looked up): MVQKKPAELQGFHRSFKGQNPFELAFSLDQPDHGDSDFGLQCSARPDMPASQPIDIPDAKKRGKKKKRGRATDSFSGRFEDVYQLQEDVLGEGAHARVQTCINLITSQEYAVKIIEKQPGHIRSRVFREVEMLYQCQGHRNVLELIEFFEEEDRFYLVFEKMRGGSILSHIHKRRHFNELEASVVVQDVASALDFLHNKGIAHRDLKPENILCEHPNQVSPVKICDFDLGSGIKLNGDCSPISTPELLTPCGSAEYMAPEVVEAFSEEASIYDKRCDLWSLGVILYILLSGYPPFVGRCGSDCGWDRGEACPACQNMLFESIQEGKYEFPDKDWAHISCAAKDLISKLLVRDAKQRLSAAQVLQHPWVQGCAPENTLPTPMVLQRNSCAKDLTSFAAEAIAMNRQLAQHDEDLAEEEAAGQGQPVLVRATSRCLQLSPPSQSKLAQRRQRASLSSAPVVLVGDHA
Chain of UniProt Q06187 (whole entry, looked up): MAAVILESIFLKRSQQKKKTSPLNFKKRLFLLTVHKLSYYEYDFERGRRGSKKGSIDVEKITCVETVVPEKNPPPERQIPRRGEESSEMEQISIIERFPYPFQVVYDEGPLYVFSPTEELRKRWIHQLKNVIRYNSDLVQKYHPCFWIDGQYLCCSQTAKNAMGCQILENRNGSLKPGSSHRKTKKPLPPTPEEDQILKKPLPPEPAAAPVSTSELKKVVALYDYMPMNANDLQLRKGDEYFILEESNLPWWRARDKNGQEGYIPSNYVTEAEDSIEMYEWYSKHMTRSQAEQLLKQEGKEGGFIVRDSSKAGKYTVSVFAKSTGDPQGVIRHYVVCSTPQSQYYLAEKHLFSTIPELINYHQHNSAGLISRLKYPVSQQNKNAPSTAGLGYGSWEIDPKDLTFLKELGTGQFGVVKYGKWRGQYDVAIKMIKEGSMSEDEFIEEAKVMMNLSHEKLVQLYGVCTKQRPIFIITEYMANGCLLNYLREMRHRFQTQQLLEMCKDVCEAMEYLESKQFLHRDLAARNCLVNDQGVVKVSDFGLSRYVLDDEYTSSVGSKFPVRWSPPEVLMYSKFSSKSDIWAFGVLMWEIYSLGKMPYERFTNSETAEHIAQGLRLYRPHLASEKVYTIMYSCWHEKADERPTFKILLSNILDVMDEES
Chain of UniProt P07948 (whole entry, looked up): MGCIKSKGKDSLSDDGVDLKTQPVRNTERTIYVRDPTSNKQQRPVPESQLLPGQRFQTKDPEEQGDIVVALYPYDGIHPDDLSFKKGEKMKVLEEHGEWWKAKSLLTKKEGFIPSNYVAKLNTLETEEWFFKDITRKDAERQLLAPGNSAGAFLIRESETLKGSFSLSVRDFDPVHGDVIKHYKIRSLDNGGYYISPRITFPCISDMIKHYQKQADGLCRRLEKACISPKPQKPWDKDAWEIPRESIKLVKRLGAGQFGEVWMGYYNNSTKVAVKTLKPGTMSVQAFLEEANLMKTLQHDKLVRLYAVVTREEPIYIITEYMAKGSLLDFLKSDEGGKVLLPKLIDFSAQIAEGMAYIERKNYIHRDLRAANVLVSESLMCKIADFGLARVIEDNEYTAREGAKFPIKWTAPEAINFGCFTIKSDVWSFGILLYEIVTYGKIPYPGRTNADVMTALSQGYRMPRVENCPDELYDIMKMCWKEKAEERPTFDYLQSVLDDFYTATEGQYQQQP
Chain of UniProt Q99759 (whole entry, looked up): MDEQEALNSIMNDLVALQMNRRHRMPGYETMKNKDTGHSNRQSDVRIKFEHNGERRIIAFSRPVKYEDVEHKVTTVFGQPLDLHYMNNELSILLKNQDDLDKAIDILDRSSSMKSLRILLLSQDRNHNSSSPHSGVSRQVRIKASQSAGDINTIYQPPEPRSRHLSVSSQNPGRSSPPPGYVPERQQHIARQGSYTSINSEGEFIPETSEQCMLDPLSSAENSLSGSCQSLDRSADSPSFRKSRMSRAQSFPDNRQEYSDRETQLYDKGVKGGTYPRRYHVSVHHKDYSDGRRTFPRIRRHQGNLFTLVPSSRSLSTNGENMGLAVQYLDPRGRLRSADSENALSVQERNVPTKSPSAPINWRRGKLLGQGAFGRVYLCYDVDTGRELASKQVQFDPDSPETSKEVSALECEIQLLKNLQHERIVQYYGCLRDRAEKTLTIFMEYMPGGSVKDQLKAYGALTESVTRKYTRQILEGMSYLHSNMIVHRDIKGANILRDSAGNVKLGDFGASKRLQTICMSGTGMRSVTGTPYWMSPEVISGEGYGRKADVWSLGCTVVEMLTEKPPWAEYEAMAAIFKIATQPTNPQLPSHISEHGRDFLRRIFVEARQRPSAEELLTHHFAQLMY
Chain of UniProt P48729 (whole entry, looked up): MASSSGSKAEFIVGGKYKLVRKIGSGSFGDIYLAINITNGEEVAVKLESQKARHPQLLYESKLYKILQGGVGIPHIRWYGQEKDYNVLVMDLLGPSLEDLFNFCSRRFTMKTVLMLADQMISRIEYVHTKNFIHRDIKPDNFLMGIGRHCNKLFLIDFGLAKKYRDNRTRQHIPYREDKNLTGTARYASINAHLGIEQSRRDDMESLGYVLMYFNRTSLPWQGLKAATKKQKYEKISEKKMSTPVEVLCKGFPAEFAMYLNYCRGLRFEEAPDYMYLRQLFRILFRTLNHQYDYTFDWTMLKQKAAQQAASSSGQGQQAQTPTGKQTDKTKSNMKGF
Chain of UniProt Q9NWZ3 (whole entry, looked up): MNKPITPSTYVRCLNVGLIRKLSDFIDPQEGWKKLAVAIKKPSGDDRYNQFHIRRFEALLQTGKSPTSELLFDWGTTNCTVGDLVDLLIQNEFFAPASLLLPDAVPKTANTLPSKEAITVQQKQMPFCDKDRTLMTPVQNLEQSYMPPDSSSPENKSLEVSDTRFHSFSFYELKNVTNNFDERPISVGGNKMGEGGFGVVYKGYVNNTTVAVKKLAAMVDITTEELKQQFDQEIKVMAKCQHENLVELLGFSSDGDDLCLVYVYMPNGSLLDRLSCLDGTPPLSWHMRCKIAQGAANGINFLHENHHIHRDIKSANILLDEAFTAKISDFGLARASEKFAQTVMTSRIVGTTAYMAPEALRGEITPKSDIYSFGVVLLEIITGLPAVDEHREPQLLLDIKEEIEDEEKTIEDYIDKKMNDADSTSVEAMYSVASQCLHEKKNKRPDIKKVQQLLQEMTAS
Chain of UniProt O15264 (whole entry, looked up): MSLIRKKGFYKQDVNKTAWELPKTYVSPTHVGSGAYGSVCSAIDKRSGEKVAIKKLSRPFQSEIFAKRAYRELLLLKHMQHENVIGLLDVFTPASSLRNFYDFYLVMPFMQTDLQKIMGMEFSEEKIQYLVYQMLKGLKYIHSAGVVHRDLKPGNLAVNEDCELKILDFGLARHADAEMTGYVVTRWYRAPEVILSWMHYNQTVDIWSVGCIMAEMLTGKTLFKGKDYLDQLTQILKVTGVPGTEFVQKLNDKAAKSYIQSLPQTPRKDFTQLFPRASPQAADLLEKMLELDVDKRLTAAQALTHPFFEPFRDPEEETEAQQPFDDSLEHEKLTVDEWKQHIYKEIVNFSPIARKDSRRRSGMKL
Chain of UniProt Q9Y243 (whole entry, looked up): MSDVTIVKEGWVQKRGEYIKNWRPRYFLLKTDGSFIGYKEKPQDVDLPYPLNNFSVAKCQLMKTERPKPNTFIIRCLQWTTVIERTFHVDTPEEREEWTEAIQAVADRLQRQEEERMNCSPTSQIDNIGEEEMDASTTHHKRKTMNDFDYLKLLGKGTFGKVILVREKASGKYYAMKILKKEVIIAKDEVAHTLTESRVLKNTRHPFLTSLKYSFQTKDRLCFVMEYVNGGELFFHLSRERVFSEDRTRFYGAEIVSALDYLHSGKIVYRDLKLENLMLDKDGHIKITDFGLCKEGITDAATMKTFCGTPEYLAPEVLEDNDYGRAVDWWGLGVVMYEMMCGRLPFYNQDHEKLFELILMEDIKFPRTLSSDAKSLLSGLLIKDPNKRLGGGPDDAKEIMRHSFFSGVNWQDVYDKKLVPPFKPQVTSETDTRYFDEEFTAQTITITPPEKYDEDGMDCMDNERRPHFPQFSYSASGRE

Study 1
Compound: COc1ccc(-c2cnc3c(-c4ccsc4)cnn3c2)cc1
Read-out: enzyme activity
Mode: inhibitor
Concentration: 0.5 µM
Relative to: control
CHEK1 (Homo sapiens, UniProt O14757) — remaining activity: 90.8%.
PRKCI (Homo sapiens, UniProt P41743) — remaining activity: 96.2%.
MAP2K6 (Homo sapiens, UniProt P52564) — remaining activity: 95.9%.
BTK (Homo sapiens, UniProt Q06187) — remaining activity: 97.1%.
For EPHA5 (Homo sapiens, UniProt P54756): remaining activity read 89.1%.
It gave 73.8% for remaining activity (Cyclin-dependent kinase 9, with cyclin T1 (CDK9, Homo sapiens, UniProt P50750)).
CSNK2A1 (Homo sapiens, UniProt P68400) — remaining activity: 101%.
It gave 101% for remaining activity (CSNK1A1 (Homo sapiens, UniProt P48729)).
WNK2 (Homo sapiens, UniProt Q9Y3S1) — remaining activity: 103%.
It gave 102% for remaining activity (STK38 (Homo sapiens, UniProt Q15208)).
MKNK2 (Homo sapiens, UniProt Q9HBH9) — remaining activity: 37.5%.
The remaining activity was 94.8% (MAPK12 (Homo sapiens, UniProt P53778)).
LRRK2 (Homo sapiens, UniProt Q5S007) — remaining activity: 68.1%.
The remaining activity was 100% (PLK2 (Homo sapiens, UniProt Q9NYY3)).
It gave 74.8% for remaining activity (MAP4K2 (Homo sapiens, UniProt Q12851)).
It gave 82.1% for remaining activity (IRAK4 (Homo sapiens, UniProt Q9NWZ3)).
It gave 93.5% for remaining activity (MAPK13 (Homo sapiens, UniProt O15264)).
The remaining activity was 95.4% (AKT3 (Homo sapiens, UniProt Q9Y243)).
It gave 81.8% for remaining activity (LYN (Homo sapiens, UniProt P07948)).
It gave 98.9% for remaining activity (PRKCD (Homo sapiens, UniProt Q05655)).
The remaining activity was 80% (NEK4 (Homo sapiens, UniProt P51957)).
For PRKG1 (Homo sapiens, UniProt Q13976): remaining activity read 86.5%.
For KIT (Homo sapiens, UniProt P10721): remaining activity read 36.2%.

Study 2
SMILES: CC(=O)c1c(NS(C)(=O)=O)c2cc(-c3ccc(Cl)cc3)c(-c3ccc(Cl)cc3Cl)nc2n(C)c1=O
Read-out: cell-free assay
Technique: competition with immobilised ligand
Concentration: 1 µM
It gave 91% for remaining binding (MAP3K15 (Homo sapiens, UniProt Q6ZN16)).
It gave 82% for remaining binding (MAP4K2 (Homo sapiens, UniProt Q12851)).
It gave 100% for remaining binding (SIK2 (Homo sapiens, UniProt Q9H0K1)).
For NEK3 (Homo sapiens, UniProt P51956): remaining binding read 67%.
For MAP3K3 (Homo sapiens, UniProt Q99759): remaining binding read 100%.
For PLK1 (Homo sapiens, UniProt P53350): remaining binding read 87%.
The remaining binding was 100% (CHUK (Homo sapiens, UniProt O15111)).
It gave 85% for remaining binding (MAP3K19 (Homo sapiens, UniProt Q56UN5)).
The remaining binding was 90% (Ribosomal protein S6 kinase alpha-6, C-terminal kinase domain (RPS6KA6, Homo sapiens, UniProt Q9UK32)).
For MKNK2 (Homo sapiens, UniProt Q9HBH9): remaining binding read 75%.
It gave 72% for remaining binding (TAOK3 (Homo sapiens, UniProt Q9H2K8)).
For FLT3 (Homo sapiens, UniProt P36888, D835V/ITD): remaining binding read 87%.
It gave 98% for remaining binding (CDK11A (Homo sapiens, UniProt Q9UQ88)).
TTK (Homo sapiens, UniProt P33981) — remaining binding: 100%.
PRKD3 (Homo sapiens, UniProt O94806) — remaining binding: 100%.
It gave 97% for remaining binding (EPHA8 (Homo sapiens, UniProt P29322)).
The remaining binding was 100% (BMPR2 (Homo sapiens, UniProt Q13873)).

Study 3
Cell line: mouse MPNST tumor cells
Technique: high-content nuclear imaging
Measured: cell number
Concentration: 10 µM
Time: 12 h
Notes: mean of 2 replicates
Relative to: plate mean
Direction: higher = more cells
`COc1ccc(C(=O)c2ccccc2)c(O)c1` has a nuclei count of 1.41 z-score.
The nuclei count of `CC(=O)Nc1cccc(Nc2ncnc(N3CCC(OCc4ccc(OC(F)(F)F)cc4)CC3)n2)c1C` is reported as 1.58 z-score.
For `CCCCn1c(-c2ccccc2)nc(-c2ccccc2)c1CN(Cc1ccc2c(c1)OCO2)Cc1ccc2c(c1)OCO2`, the nuclei count was 3.03 z-score.
With `C=CCN1CCc2nc(N)sc2CC1` the nuclei count was 0.479 z-score.
The nuclei count of `O=C(NC1CCC1)c1ccc(C#Cc2cccc(F)c2)nc1` is reported as -2.68 z-score.
`CN(C)CCOC(C)(c1ccccc1)c1ccccn1` (stereo not drawn) gave a nuclei count of 1.75 z-score.
`COc1ccc(S(=O)(=O)N2CCC[C@H]2C(=O)Nc2cc(C)cc(C)c2)cc1` gave a nuclei count of 1.11 z-score.
`CCCCOc1c(C(=O)c2c(F)cc(C)cc2F)c[nH]c2nncc1-2` gave a nuclei count of -1.26 z-score.
The nuclei count of `N=C(N)NC(=O)c1cnn(-c2cccc3ncccc23)c1C1CC1` is reported as 0.211 z-score.
The nuclei count of `Cc1c(NC(=O)OC[C@@H]2COCCN2)cn2ncnc(Nc3ccc4c(cnn4Cc4cccc(F)c4)c3)c12` is reported as -0.398 z-score.
`O=C(C1CCCCC1)N1CC(=O)N2CCc3ccccc3C2C1` (stereo not drawn) has a nuclei count of 1.93 z-score and 0.753 z-score.
For `Nc1nccc(-c2c(-c3ccc(F)cc3)ncn2C2CCN(Cc3ccon3)CC2)n1`, the nuclei count was -1.64 z-score.

Study 4
Host: mouse
Medium: microsomes or S9
Concentration: 2 µM
Time: 0.5 h
The remaining compound of `CC(c1cncs1)N(C)C(=O)c1cnn(C(C)C)c1` (stereo not drawn) is reported as 40.8%.
The remaining compound of `O=S1(=O)N=C(N(CCc2ccccc2)Cc2ccccc2)c2ccccc21` is reported as 1.3%.
For `COCCN(CC(=O)N1N=C(c2ccccc2F)CC1c1cccs1)C(=O)CC(C)(C)C` (stereo not drawn), the remaining compound was 1.48%.
With `Cc1nnc(C)n1/N=C/c1ccc(Cl)cc1Cl` the remaining compound was 90%.
For `Cn1nc(C(=O)N2CCOCC2)cc1C(=O)Nc1ccc(F)cc1OC(F)F`, the remaining compound was 48.9%.
The remaining compound of `CCCc1nn2c(N)c(C#N)nnc2c1-c1ccc(F)cc1` is reported as 33.8%.
The remaining compound of `COC(=O)c1ccc(C(=O)N2CCCN(C(=O)C[C@H](N)Cc3cc(F)c(F)cc3F)CC2)cc1` is reported as 79.4%.
`CC(C)(C)/C(=C\n1ccnc1)c1ccc(C(C)(C)C)cc1Cl` has a remaining compound of 34.5%.
